Results of several laboratories.
Every numbered part comes from another study and shows a few of its results, in no order.

Study 1
Target: RNA binding protein fox-1 homolog 2, RRM domain, GST-SBP tag (RBFOX2, Homo sapiens, UniProt O43251-10, residues 100-194)
Method: RNA Bind-n-Seq
Form: RNA
Matrix: in vitro
Concentration: 365 nM
Notes: natural RNA segment, single round, ends assumed
Reference: no-protein control
Direction: higher = stronger binding
Constant ends, left off below: GGGAGUUCUACAGUCCGACGAUC … UGGAAUUCUCGGGUGCCAA
Residues (chain): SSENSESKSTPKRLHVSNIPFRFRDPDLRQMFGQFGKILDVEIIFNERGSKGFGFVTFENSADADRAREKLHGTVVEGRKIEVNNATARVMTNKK
| Sequence | RBNS enrichment (R) |
| --- | --- |
| UCCGCUCCCCCCACAUCCCAGCCUGGACUUCUCCUGAGUAUGGGGCUUUUUCUGGCAGCCAGAAGCCAAUGCUUAUGCAGGCUCCCGCAUCUCAGCCAGAGGCCAGAUGU | 0.525 |
| UUUGGUGACCCUGCUUAAGCAUUCCCACCGUGUCCCAGCUCUGCUCUAGGACUGCCUCCCACUGCGGCCCCUCACCUGACUUCAGGGUAUGGGGAGGGAGGGAGCCAGUG | 0.28 |
| AAGGCAGACACCCAAUCCUGCCCCCACACUCGGGGUCCUCCAAGAGGUUGGGGGGCAGAGUCCCAGAGCAGCCCUUUACCCCAGGUCCAGGCCCUGGAAUCCUGAGACUC | 0.247 |
| CCUCCCGUGGGCCCUGUGGUGUGAUGCUGUGUCUGUAUAUUCUAUACAAAGGUACUUGUCCUUUCCCUUUGUAAACUACAUUUGACAUGGAUUAAACCAGUAUAAACAGU | 0.435 |
| GUAUUUGAUUAACCUAAACAGUUUAAGCAUUUUGAAUUAGUUGGAGUUUAAAUGGAUUACAUUUGGUGUAUAUUGUCUUCAUUGAAAAGAUAUUGUUGGAUAUGCCACAU | 0.513 |
| GCUCCUUGAGAGCAGGAUCCAUGUCAUUCCUUUAUUUUUAUAAAUUAUUCCCCCUAUCAUUCCUUUACAGUGCCUAGUGCUACUCAUUAUGUGUUCAUUGAAUUUGACUG | 0.67 |
| AGCGCCUUGAGUCAAGGCCACUUUUCAGCCCAUCGAGCCCUGAGUUCUACUUGGUGUUUGUUCUCUGGAGCUGAUUGCACUUGAGCUCUGUGGUGGGCAGGCGCACUUUA | 0.897 |
| UGCCAGCUGGUGUUUGGAAGUAGGAACCAUGAUGGCAUUACCUGGACAAGGAGAUUGGGGACAACUCUUAAGUCUCACACAGGAGGCUUUUAAACACUAAAAUGUCUAAU | 0.643 |
| GAUAGACAAUUUCAGCUAGCCACAUAUUGUAUGUAUGAGAUUCAUAAAGACUUUCAAUCAUUUCAUUUUCAGACAACUGAAAUUUUGUUUAGUAUGUGAAUUCUUUUUUU | 0.484 |
| CCAUCGAGUAUUUCCCCCGGAACUGGAGAUUCGGGCGUCAUUUGGCUGCUACUUGCUUAGUGACUCCAGGCUGCAUCAUAUAUCAUAAUUUAUUUUAAAGAGAAAGUGAU | 0.699 |
| GCCGGGUCUGCCUCUUCUGGGAGGGCAGCAGGGCUACCCUGAGCUGAGGCAGCAGUGUGAGGCCAGGGCAGAGUGAGACCCAGCCCUCAUCCCGAGCACCUCCACAUCCU | 0.293 |
| UCAUGAUUGUAAAGGGAAUAUAUAACCACACAGAUUUUAUAGCUGCUUCCUGGUUAUCACUUACAUUCCGUAAGGAGCUGUUCCUUAGGACCGGUUGGAAGUAGAAGAAA | 0.5 |

Study 2
Target: Histone acetyltransferase KAT6A, both winged helices, GST fusion (KAT6A, Homo sapiens, UniProt Q92794, residues 1-181)
Method: protein binding microarray
Form: double-stranded DNA, one strand shown
Matrix: in vitro
Concentration: not given
Notes: 8-mer, flanks averaged, mean of 2 arrays, mostly near background
Reference: not given
Direction: higher = stronger binding
Construct (chain): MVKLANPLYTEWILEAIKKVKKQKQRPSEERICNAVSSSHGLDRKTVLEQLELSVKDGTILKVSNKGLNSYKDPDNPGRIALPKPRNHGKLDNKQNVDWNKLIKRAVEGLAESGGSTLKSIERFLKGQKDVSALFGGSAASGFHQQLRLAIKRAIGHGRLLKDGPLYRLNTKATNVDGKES
| Sequence | E-score |
| --- | --- |
| AATAAGAG | -0.191 |
| AACACTTG | -0.125 |
| GCAGTAGA | -0.114 |
| TCTCTGAA | -0.23 |
| ACCCACTG | -0.0669 |
| CATGCAGC | 0.0837 |
| AACATTAA | -0.00304 |
| ATTTTTCA | -0.0618 |
| GCTGATAA | 0.0826 |
| ACGAATTA | -0.12 |
| ACAGTGGC | -0.0337 |
| TCATGACA | 0.101 |
| CAAAGGAC | -0.103 |
| AAATTTGC | 0.0744 |
| CGCTCTAA | 0.0963 |
| ATATAACA | 0.0348 |
| CCCAATTC | -0.279 |
| AAAGAGTT | -0.168 |
| AAGTCAGT | -0.0379 |
| TGACTCAA | -0.0646 |
| GCGAACAC | 0.0798 |
| ACGGGGAT | 0.108 |
| ACCTGTGA | -0.0731 |
| CGCCACCG | 0.114 |
| ATGATATA | -0.0567 |

Study 3
Target: Sox-I, HMG box (Salpingoeca helianthica)
Method: Spec-seq
Form: double-stranded DNA, one strand shown
Matrix: in vitro
Concentration: not given
Notes: whole probe, mean of replicates
Reference: not given
Direction: lower = stronger binding
Constant ends, left off below: GAGTCGTCTCGTCAGCAC … CCGTAGAGCACTCAGGTC
Construct (chain): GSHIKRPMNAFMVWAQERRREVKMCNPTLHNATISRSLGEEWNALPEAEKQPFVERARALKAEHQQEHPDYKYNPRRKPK
| Sequence | relative binding energy |
| --- | --- |
| GTGTGTT | 0.384 ln ratio |
| CATTTGT | -0.644 ln ratio |
| CATTTAT | 0.358 ln ratio |
| ACCAGTT | -0.87 ln ratio |
| CATACGC | 0.805 ln ratio |
| CATGTCA | 0.796 ln ratio |
| ATGGGTT | 0.532 ln ratio |
| TATCGTT | 0.0927 ln ratio |
| CATGTTG | 0.919 ln ratio |
| TGGTGTT | 0.323 ln ratio |
| CATCGCG | 1.13 ln ratio |
| GGCTGTT | -0.391 ln ratio |
| CATGCGA | 1.26 ln ratio |
| CATGCAA | 0.916 ln ratio |
| CATGGGC | 1.1 ln ratio |
| TCAGGTT | 0.605 ln ratio |
| TAGGGTT | 0.77 ln ratio |
| CATCTGG | 1.34 ln ratio |

Study 4
Target: RING finger protein unkempt homolog, zinc fingers 1-6, GST-SBP tag (UNK, Homo sapiens, UniProt Q9C0B0, residues 30-357)
Chain of UniProt Q9C0B0 (30-357, looked up): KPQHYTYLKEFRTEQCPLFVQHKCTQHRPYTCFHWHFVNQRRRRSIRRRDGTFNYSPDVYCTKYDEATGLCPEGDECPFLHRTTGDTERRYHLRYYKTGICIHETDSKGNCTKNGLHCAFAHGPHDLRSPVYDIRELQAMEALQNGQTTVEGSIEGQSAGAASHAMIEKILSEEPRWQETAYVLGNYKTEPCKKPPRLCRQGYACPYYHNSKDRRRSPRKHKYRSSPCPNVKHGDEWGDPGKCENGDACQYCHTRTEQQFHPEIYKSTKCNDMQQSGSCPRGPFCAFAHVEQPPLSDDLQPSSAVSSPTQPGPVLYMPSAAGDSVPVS
Method: RNA Bind-n-Seq
Form: RNA
Matrix: in vitro
Concentration: not given
Notes: RNA with constant flanks, human and mouse sites, ends assumed
Reference: input RNA pool
Direction: higher = stronger binding
Constant ends, left off below: GGGAGUUCUACAGUCCGACGAUC … CAACAGAGGAUUGAGCAUCA
| Sequence | bound/input enrichment |
| --- | --- |
| CCCCCAAAUCAUUGGCUUUCACAUCCAGUAUUUUUGGCUCAUGGCAACAGGUUUUUAAACUUUAUUUCAUUAAAUAUUUUCCAUUCUUGCAUUCAGAGCAACAAACAGCUAUUUUUGAGG | 0.799 ratio |
| GAUGACAUCCACCGCUCCCUCAUGGUUGACCAUGUGACUGAGGUCAGUCAGUGGAUGGUAGGAGUUAAAAGAUUAAUUGCAGAAAAGAGGAGUCUGUUUUCAGAGGAGGCAGCCAAUGAA | 0.881 ratio |
| UUCAAAAUCGGAGCAUGUCGUCAUGGAGACAGAUGUUCUCGGUUGCACAAUAAACCAACCUUUAGCCAGACCAUUGCCCUCUUGAACAUUUACCGUAACCCUCAAAACUCUUCCCAGUCU | 0.179 ratio |
| GACAGAGAGGCACCUGGGUCAGUAUUAGUCUAUUUAUCAGAGGUGUAAAUAAUCUAUGUAUAGUUUUUCUCCUUUUAGAUUAUUUUGUAUUUGUUUAAAAGAAGUUUUGUCAAAAUACAA | 7.25 ratio |
| CUGCCCUACGUGCUGUGGCUGCUCAUAACCGCCCAGAUCUUCUCCUACCUGGGCCUGAACUUCGCGCGUGCCCACGCGGCUAGUGACACGGUGGGCUGGCAGGUCUUCUUUGUCUUCUCC | 0.211 ratio |
| UUUCUUUUUUUUUCCCCUUUCUUCUUCCUCCCUCCCAAUUCCAACACCUCCAACCCCCAAACUAGGCUGGCCUCGAACUCACUAUUGUAGAAAGAUGUCCUUGAAGUCUCAAUCCUCCUG | 3.36 ratio |
| AUCACCAUGUUGGAGGCAGCCUUGGGACUGGAGCGAGCUCACAUGGGAAUGUUCACAGAGCUAGCUAUUUUGUAUUCUAAAUUCAAGCCACAGAAAAUGAGAGAACACCUGGAGUUGUUC | 0.655 ratio |
| CUUCUGCAGCUCAUCUCAUGCCUGCAGUGCCGGCGGUGUCCCCAUUACUUCUUACCGAACUUAGAUCUGUUUCAAGGCAAACCCCACUCGGCCUUGGAAAACGCUGCUAAACAAACGUGG | 0.459 ratio |
| UUGUAAUGUGGCCUGAAAACAAGCUAACUGUAUUAGAAACUAUUCAAAAACUAGGUAUUUUUAGUGACCUGUAGGCAGUGGCAAAUACAGACAUGUGAACCUUGAAUACAUUACAUUUCU | 1.66 ratio |
| AAUUCAGGUAACUUCAAAAGUUCAUCAGAUAGAAACCCUCCACUCAGCCCUCAGUCCUCUAUAGAUAGUGAGUUAAGUGCUUCAGAAUUAGAUGAAGAUUCAAUUGGAUCCAACUAUAAG | 1.6 ratio |
| CAGUUAAGGAAAGGAGUAAGUGAAAUUGGAGAAGAUGUGGACUAUGAUGAGGAACUCUAUGUUGCUGGAAAUAUGGUGAUAUGGAGCAAAGGAAGUAAAAGCCAGGCAUUGGCAGUUUAU | 0.302 ratio |

Study 5
Target: Sal-like protein 4, full length isoform A (SALL4, Homo sapiens, UniProt Q9UJQ4, residues 1-1053)
Chain of UniProt Q9UJQ4 (whole entry, looked up): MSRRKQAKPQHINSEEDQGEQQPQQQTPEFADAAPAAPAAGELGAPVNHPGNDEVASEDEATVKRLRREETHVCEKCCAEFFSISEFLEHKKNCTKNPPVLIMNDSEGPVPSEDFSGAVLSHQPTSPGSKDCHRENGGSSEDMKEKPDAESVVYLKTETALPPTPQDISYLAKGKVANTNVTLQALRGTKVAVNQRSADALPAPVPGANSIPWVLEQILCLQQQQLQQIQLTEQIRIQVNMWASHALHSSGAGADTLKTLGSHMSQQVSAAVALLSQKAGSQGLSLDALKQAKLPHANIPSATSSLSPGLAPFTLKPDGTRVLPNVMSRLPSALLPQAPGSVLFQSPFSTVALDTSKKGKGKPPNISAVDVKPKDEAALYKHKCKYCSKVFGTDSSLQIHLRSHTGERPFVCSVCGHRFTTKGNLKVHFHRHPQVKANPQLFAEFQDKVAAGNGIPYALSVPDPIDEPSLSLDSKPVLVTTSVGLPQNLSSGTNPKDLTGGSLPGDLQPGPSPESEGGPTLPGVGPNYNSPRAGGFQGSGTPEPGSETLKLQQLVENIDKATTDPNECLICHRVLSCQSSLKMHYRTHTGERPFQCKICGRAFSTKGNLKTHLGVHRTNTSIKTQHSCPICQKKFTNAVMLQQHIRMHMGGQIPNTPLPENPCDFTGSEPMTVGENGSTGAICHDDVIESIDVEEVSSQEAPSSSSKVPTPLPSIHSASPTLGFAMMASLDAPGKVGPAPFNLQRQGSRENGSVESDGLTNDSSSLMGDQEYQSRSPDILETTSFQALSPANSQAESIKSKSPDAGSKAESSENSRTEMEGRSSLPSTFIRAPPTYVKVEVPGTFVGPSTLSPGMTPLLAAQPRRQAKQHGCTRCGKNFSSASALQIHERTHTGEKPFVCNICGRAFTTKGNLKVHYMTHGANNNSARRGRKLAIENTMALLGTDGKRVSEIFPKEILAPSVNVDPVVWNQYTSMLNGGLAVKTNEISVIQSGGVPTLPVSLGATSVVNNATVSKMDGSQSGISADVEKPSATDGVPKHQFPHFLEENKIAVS
Method: universal PBM
Form: double-stranded DNA, one strand shown
Matrix: in vitro
Concentration: 600 nM
Notes: 8-mer, flanks averaged, mean of replicates
Direction: higher = stronger binding
| Sequence | E-score |
| --- | --- |
| GACGAACC | 0.004 |
| GTGTCTAA | 0.169 |
| ACGCCCGT | -0.187 |
| AGAAGGCG | -0.227 |
| TCATCACA | 0.0856 |
| ATACTGAC | 0.182 |
| ACAGGCCG | -0.255 |
| AACGTGCG | -0.101 |
| GAGTAGAA | 0.122 |
| GCGTCGAA | -0.0834 |
| CGGCGGAA | -0.187 |
| ATCCCAAG | -0.118 |
| AGATGTGA | 0.103 |
| AACGGACA | -0.0623 |
| AGAGGTGC | -0.245 |
| ACGCCGCG | -0.258 |
| CGCGGTAG | -0.0957 |
| ATCTCCTG | 0.0641 |

A few entries again (study 3):
| Sequence | relative binding energy |
| --- | --- |
| CATACGC | 0.805 ln ratio |
| CATGTCA | 0.796 ln ratio |
| ATGGGTT | 0.532 ln ratio |
| TATCGTT | 0.0927 ln ratio |
| CATGTTG | 0.919 ln ratio |
| TGGTGTT | 0.323 ln ratio |
| CATCGCG | 1.13 ln ratio |
| GGCTGTT | -0.391 ln ratio |
| CATGCGA | 1.26 ln ratio |
| CATGCAA | 0.916 ln ratio |
| CATGGGC | 1.1 ln ratio |
| TCAGGTT | 0.605 ln ratio |
